Results of several laboratories.
Numbered parts are unrelated; each lists some results of a single study.

Set 1
Target: RNA binding protein fox-1 homolog 2, RRM domain, GST-SBP tag (RBFOX2, Homo sapiens, UniProt O43251-10, residues 100-194)
Method: RNA Bind-n-Seq
Molecule type: RNA
Medium: in vitro
Tested at: 365 nM
Setting: natural RNA segment, single round, ends assumed
Reference: no-protein control
Direction: higher = stronger binding
Shared flanks, not repeated: GGGAGUUCUACAGUCCGACGAUC … UGGAAUUCUCGGGUGCCAA
Target sequence (chain): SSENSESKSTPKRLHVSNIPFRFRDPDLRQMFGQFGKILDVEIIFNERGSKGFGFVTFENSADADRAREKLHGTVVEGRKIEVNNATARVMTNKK
`GCCGCUUCGUAUUCCUGGAAGAAGGAAGGCAUAGGCUUCGGUUUUCCCCUCGGAAACUGCUUCUGCUGGAGGAUAUGUGUUGGAAUAAUUACGUCUUGAGUCUGGGAUUA` — result for “RBNS enrichment (R)”: 0.279.
Under “RBNS enrichment (R)”, `CAAAUAGAAAAACAAAACCUAUUUUGAUCUUUAGUGCAAACGAGGGCUAGGGACUUAGCCUCCUCCACCACCUCCACACUGCUUCAUUCUGCCAUUCACUCACUGCAGCA` is recorded as 0.521.
Under “RBNS enrichment (R)”, `AAGGAAUGAUUGCUAUAUUAUAUAUAAUUUUUAUGUGAAGCCUGUUUGACUAAUGUGUCUGGACUACUUGUAACUAGUUUUAUGAGCCUGUCAUAAUUUGCCAGGGUUCC` is recorded as 0.864.
`UAUUACUUGGAAAUUCUGAGUAUUGCUAAAAAGGAGGAUGAAAGGGACCUAGAAGUUGAGUUAUUACUAAAAACUUUGAGUGCGAAGAUAUUACUCAUUAACCAGAUAAC`: “RBNS enrichment (R)” 0.396.
`GACAGUCCAGAGAUGAGCAGAAAUCUUAAAUUCCUUCCUGAUCCAGCCUCCACAUGUGGCCUGCCCCUUGCCCCAGCAUCUUUCCAGAACCCCUGGACUUGCCAGGUGCC`: “RBNS enrichment (R)” 0.786.

Set 2
Molecule: PhoQ, residues 284 288 289 292 302 303 GNNTDL
Method: Sort-seq
Refers to: YFP reporter
Medium: E. coli
Setting: PhoQ-PhoP variant library
Added: 10 µM Mg2+
Reference: high Mg2+ state
Direction: higher = stronger signaling
It gave 3.99 for fold induction (PhoP, residues 12 14 15 18 19 SHWTV (Escherichia coli, UniProt P23836)).
For PhoP, residues 12 14 15 18 19 QYCSL (Escherichia coli, UniProt P23836): fold induction read 2.63.
The fold induction was 6.78 (PhoP, residues 12 14 15 18 19 STHWV (Escherichia coli, UniProt P23836)).

Set 3
Target: RING finger protein unkempt homolog, zinc fingers 1-6, GST-SBP tag (UNK, Homo sapiens, UniProt Q9C0B0, residues 30-357)
Method: RNA Bind-n-Seq
Molecule type: RNA
Medium: in vitro
Tested at: not given
Setting: RNA with constant flanks, ends assumed
Reference: input RNA pool
Direction: higher = stronger binding
Shared flanks, not repeated: GGGAGUUCUACAGUCCGACGAUC … CAACAGAGGAUUGAGCAUCA
Target sequence (chain): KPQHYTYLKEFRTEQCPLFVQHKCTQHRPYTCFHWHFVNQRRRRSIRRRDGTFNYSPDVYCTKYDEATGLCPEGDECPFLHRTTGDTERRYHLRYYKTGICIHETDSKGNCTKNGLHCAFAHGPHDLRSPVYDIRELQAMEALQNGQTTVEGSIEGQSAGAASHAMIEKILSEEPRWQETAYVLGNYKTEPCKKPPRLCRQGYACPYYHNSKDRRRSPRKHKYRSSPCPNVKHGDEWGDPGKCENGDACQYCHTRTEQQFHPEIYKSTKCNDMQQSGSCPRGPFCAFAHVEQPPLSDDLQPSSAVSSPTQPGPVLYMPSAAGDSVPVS
The bound/input enrichment of `AUCCCAGAGAACGCCAUAUUCGGUCCCUGUGUACUGAGCCAUACUUCCCUGUAUGACAGCACCGCCUUCGUAGCCCUCAAGUCCACGGACAAGAGAACAGUACCUUACAUCUUCCGGGUA` is reported as 0.245 ratio.
For `UACGUGUGCCAGAGACUGGGUGUCAGCCAUAUCAUCACCGAGCCCAAAGAAGAGGCCAUCCGCACAAAUGAAGUCAUAAACCAGUUACUGCACCAUGUUGGCGCCAUGUGCAUUCACCAG`, the bound/input enrichment was 0.149 ratio.
`UCUCCUGUAAUCACUUUUGGAGGGCUGCUUGGAGAAGCUACAGAAGGCAGAAUAAGUGCAACCGAGUCUCUUUUUGGAGCAUCAUUAACUGGGAUUGCCUAUUCAUUGUUUGCUGGGCAA` has a bound/input enrichment of 0.2 ratio.
`AAUGAAUCAUUGAACAAUCUUUUUAUUACAGAAGAAGAUUAUCAGGCUCUGCGAACAUCAACCGAUGCUUAUGACAACUUUGACAAUAUCUCGCUUGCUCAGCGUUUGGAAAAACAUGAA` gave a bound/input enrichment of 0.0482 ratio.
With `GCGCGAGCAGAGCGCGGUUGACCUCCCUUUCUCUGCUCAGCUCCAGCGUCAUUUCGGCCUCUCCGUUCUUCUGAACCCUGCUCCUGAGCUAGGUAGGAAACAUGAGCGGCACCAACUUGG` the bound/input enrichment was 0.0263 ratio.
The bound/input enrichment of `CGGCUAUUUGGUGAAGUCACCAGGCCUACUAAUUCCAAGUCUAUGAAAGUGGUGAAACUGUUCCGUGAACUGCCCUUGGCCAAGAAGAAGGAGACUUAUGAUUGGUAUCCAAAUCACCAC` is reported as 0.132 ratio.

Set 4
Target: Phosphate system positive regulatory protein PHO4, full length, GST-tagged (PHO4, Saccharomyces cerevisiae, UniProt P07270, residues 1-312)
Method: competition protein-binding microarray
Molecule type: double-stranded DNA, one strand shown
Medium: in vitro
Tested at: 2 µM
Setting: whole 60-bp probe, lowest competitor level
Added: Cbf1 competitor, 0.05 µM
Direction: higher = stronger binding
Shared flanks, not repeated: … GTCTTGATTCGCTTGACGCTGCTG
Target sequence (chain): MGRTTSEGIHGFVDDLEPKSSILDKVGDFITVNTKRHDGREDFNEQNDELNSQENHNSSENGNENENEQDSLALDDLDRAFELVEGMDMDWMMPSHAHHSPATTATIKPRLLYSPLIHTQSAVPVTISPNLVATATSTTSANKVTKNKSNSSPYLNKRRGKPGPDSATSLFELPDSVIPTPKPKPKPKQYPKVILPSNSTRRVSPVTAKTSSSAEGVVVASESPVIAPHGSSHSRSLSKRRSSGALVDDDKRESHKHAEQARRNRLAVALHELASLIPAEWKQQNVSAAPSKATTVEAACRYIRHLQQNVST
With `CAAGTTCCTGGCCATCACGTTGCCTTCTCCTTACGA` the fluorescence intensity was 11500 a.u.
With `GTCTTGTCTCATTTTCACGTGTCCTTCCCCACTTCA` the fluorescence intensity was 12700 a.u.
The fluorescence intensity of `GTGCGGCCATTGCTGAAAATCGCAAAACCCACAGAG` is reported as 4720 a.u.
`CTAACGAAGGTTTGGGCAGTGGGTGACAAGCCAAGT` has a fluorescence intensity of 3780 a.u.
The fluorescence intensity of `TTGAGCATAATCCATCACGTGATGGACACCCATACC` is reported as 12500 a.u.

Repeated from above (set 4):
The fluorescence intensity of `TTGAGCATAATCCATCACGTGATGGACACCCATACC` is reported as 12500 a.u.
With `GTCTTGTCTCATTTTCACGTGTCCTTCCCCACTTCA` the fluorescence intensity was 12700 a.u.
